Measured values of several laboratories.
Parts stem from different laboratories: compare values within a part only. Substitutions count along the parent as printed.

Block 1
Target: RING finger protein unkempt homolog, zinc fingers 1-6, GST-SBP tag (UNK, Homo sapiens, UniProt Q9C0B0, residues 30-357)
Chain of UniProt Q9C0B0 (30-357, looked up): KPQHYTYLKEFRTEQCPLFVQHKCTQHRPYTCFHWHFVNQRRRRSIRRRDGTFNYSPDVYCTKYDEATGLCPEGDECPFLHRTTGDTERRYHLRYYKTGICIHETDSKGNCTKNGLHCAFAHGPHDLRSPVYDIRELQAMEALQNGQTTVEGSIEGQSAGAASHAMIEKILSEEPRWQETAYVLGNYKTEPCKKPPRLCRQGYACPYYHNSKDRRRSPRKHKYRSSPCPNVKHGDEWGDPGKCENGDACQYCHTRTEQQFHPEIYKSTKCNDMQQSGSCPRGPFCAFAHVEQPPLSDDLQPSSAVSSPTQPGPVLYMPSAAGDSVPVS
Technique: RNA Bind-n-Seq
Molecule type: RNA
Medium: in vitro
Tested at: not given
Setting: RNA with constant flanks, ends assumed
Relative to: input RNA pool
Reading: higher = stronger binding
Sequence	bound/input enrichment
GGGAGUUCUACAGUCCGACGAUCGCUACUUUAACCUAUGAUAAUUAUUUACAAAAUUUUAACACUAACCAAACAAUGCAGAUCUCCGGGAUGAUUAAAGGCAGCAUUUGAUGAUAGCAGACAUUGUUACAAGGACAUGGUGAGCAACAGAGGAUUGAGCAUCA	15.1 ratio
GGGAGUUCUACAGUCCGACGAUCGAUCCAAUGUUGCUGCAGUUUUUCAAGUCUCAAGGUUAUAGGGAUGGCCCAGGUAAUCCUCUCCGACAUAAUUAUGAAGGUACUUUAAGAGAUCUUCUACAGUUCUUCAAGCCUAGACAACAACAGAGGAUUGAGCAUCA	0.44 ratio
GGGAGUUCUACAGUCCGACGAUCUGUAGUUCUGAAUACACAGGUUUUGUGUGUAUUUACUCUAUGUAUUAAAUUAUUAUUGCCCUCCGUUUAAAGUAAGGAUUACAAUUGGAUUUAAGUAGAUCACUGAAUGUUAUUGUUUAUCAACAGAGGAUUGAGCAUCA	1.7 ratio
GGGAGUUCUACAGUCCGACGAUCGGUGAGAGUAUCAUGGUUGAACUCGCAGCUGGACCUUUUGGAAAUAAUGAAAAGUUGCCAGCCGUCAUCAGAGUACCAAAACUGAUCUAUUUCUCAGUAAUGAGUGUGUGCCUCAUGCCUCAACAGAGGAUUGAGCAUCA	0.125 ratio
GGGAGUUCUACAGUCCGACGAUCAAGCCUUAAGCACAAUUAAUUAAAAGUGAAACGUAAUUGUACAAGCAGUUAAUCACCCACCACCGGGCAUGAUUAACAAAGCAACCUUUCCCUUCCCCCGAGUGAUUUUGCGAAACCCCCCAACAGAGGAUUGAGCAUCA	0.314 ratio
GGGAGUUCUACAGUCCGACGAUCAUCCUUCAGUGUUUUUUGUCCAUUAUCUGGGUCUUUUGGGCUUUAUCUAUUUUGGCUUCGAUCCGGAAACCCACGAAUCAGGUAGAAACCCCCGGAUGGCUGCCAUAGUUCCAGUUUUAACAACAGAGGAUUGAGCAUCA	0.526 ratio
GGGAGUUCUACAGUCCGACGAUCGGCAGGCCAGCACCUGGCUCAGUGUCAGUCUAUUUAUCAGAGGUGUAAAUAAUCCACACACCGUUUUUCUCCUUUUAGAUUAUUUUGUAUUUGUUUAAAAAAUAUUUGUCAAAAUACAAACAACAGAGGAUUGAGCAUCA	2.99 ratio
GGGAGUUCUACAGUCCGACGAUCGAGAAGGAAUGGAAACUAGGCCGGUGCAUUUUACGGUUCCCUGAGAUUCUGCAAAAGAUUUCCGAUGACUUAUUUCUCCACACUCUCUGUGAUUAUAUAUAUGAGCUGGCAACUGCUUUCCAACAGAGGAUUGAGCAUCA	0.232 ratio

Block 2
Target: RNA binding protein fox-1 homolog 2, RRM domain, GST-SBP tag (RBFOX2, Homo sapiens, UniProt O43251-10, residues 100-194)
Technique: RNA Bind-n-Seq
Molecule type: RNA
Medium: in vitro
Tested at: 365 nM
Setting: natural RNA segment, single round, ends assumed
Relative to: no-protein control
Reading: higher = stronger binding
Residues (chain): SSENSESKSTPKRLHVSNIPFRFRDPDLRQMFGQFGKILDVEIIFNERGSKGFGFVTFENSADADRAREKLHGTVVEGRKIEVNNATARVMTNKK
Sequence	RBNS enrichment (R)
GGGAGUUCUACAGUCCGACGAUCUUACUACAUAUGAAUCUGAUAUUCUUAAUAAAGUAUUACUUUAAAUUUUCCAGCAGUAACAUUUAGAGAUUCUUUAUAGAAAUGUCCUCUGCACCAACAGUUUAUGGCUGUGGAAUUCUCGGGUGCCAA	0.571
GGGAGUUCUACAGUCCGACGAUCACACACACAAGUAAGAGACUCAGCCUGCAGUUAAUUAGCAUUCUGGCAGUUUUGACAUCAGCCAGCUGCCCUAAAUAACCCUUCAACGUUUCUUCACUUUUGCAAGGUUCUGGAAUUCUCGGGUGCCAA	0.614
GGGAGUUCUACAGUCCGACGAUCGCAUUGCCAGCCUCAUCUGCGGAGCCAGAGCCGUCCUUCUUCUCACAGCGGCCUCAGCGUCCCCAGAGCCGAGCCAGGGUGUGAGUGCAUGUGAACGUUGAGUACACAUGUGGAAUUCUCGGGUGCCAA	0.568
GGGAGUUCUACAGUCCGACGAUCCUAAAUUAACAGUGGAAAAUACUUUUCUGUAAACAGCCAGGGUAAUAAAAACCAUGAACUAAUUGUAUUUUAUCUAUUUGGUUCAUCCUGCAAUAGCGGAAUUAUACAUAUGGAAUUCUCGGGUGCCAA	0.397
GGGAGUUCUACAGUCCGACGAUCCAAAAUAAGGUAACUAUUAACUUGAUUAUACUAUAUAAUAUUCUCAAUUACAUUUGAAUUUAAAAAUAUUGAGCUCUUGAUUACAAUUUAAUACAUUGUAAAAAGUAUUAUGGAAUUCUCGGGUGCCAA	0.775
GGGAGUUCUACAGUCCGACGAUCUGUCAUUUGGAAGGAUUUGCCAGGACAGACUGAUUCUGAGUCCUGGGUGCCGUAUGUGUAUGCGGCAGUGUUGUCAGGCGAUCUUGUUUGAAGCUCUAUGUUGCCAUAAUUGGAAUUCUCGGGUGCCAA	5.85
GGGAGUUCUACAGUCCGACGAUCUUUUAAAUAUGUCUAAAAAUAAAGUAAUCUGGGGACUGAGUUGAAAUGUCAGUGAACAUGAGUAUUACUUCAAAAUCUUACAUCACUUGAUGCUAUAUUCAUUUAUGUCUUGGAAUUCUCGGGUGCCAA	0.543
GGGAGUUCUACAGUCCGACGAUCGUAACUGGAGACCAGUGGAAAUGAGUAUCAUAGAUGGUCAGGCUGCAGAUGGAUCCCAGAACCUGCAGCUACCACGGACACCAGGAGGCCCUCGGGCCACUUGGUGGAAGUGGAAUUCUCGGGUGCCAA	0.162

Block 3
Target: CCNF, cyclin fold, Cln2 fusion (human)
Technique: yeast growth competition, sequencing
Medium: yeast
Setting: strong parent motif
Relative to: not given
Reading: higher = stronger binding
Starting sequence: E2F1 docking peptide (human); PPVKRRLDLETDH
Variant	normalised enrichment score
PPCKRRLDLETDH [V3C]	6.73
PPVKCRLDLETDH [R5C]	0.247
PPVKRRLDLTTDH [E10T]	5.96
PPVKRRLDLETDA [H13A]	6.57
PPVKRRLDLEEDH [T11E]	5.73
PPVKRRLLLETDH [D8L]	7.01
PPVKRRLDFETDH [L9F]	7.74
PPVKRELDLETDH [R6E]	1.64
PPNKRRLDLETDH [V3N]	1.34
IPVKRRLDLETDH [P1I]	5.75
PPIKRRLDLETDH [V3I]	3.95
PPVKRPLDLETDH [R6P]	1.2
PPVKRNLDLETDH [R6N]	1.39
PPVKRRLDLLTDH [E10L]	5.98
PPVKRRLDLWTDH [E10W]	7.47
PPVKRRLDLETDT [H13T]	8.44

Block 4
Target: PABPC1L2, full length, GST fusion (mouse, UniProt A0ABA7IW68)
Technique: RNAcompete
Molecule type: RNA
Medium: in vitro
Tested at: 20 nM
Setting: 7-mer, probes averaged, single round
Relative to: mean of 7-mers
Reading: higher = stronger binding
Residues (chain): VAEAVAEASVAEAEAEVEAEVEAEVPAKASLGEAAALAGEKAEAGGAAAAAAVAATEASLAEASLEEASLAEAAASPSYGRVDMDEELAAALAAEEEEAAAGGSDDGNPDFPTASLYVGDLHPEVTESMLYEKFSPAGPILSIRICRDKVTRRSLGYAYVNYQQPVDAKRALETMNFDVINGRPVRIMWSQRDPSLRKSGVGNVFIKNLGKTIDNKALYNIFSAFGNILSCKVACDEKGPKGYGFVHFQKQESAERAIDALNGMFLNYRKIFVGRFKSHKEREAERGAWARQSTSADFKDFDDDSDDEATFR
Sequence	7-mer Z-score
GUCGUGA	-0.34
ACACGGA	0.356
GUGGGCC	-0.0355
UCGAACA	-0.104
ACCAUGA	-0.012
AUACCGG	-0.0881
ACCGGUA	-0.00289
ACAGUUG	-0.0881
CUGGCUC	-0.144
CGAUUGC	-0.249
CCACUGG	-0.208
AUCUGUA	-0.168
UGCCCGC	-0.438
CGAGGGU	-0.0228
AGAAUCU	-0.222
GUCUCAU	-0.347
UGUGGAC	0.238
UGUAUAU	-0.253
CUUAACU	-0.215
UUGCUGC	-0.383

Other studies, line by line
Molecule	target	test	test system	conditions	scale	measurement	value
PhoQ, residues 284 288 289 292 302 303 AGGCYF	PhoP, residues 12 14 15 18 19 AQALL (Escherichia coli, UniProt P23836)	Sort-seq, refers to: YFP reporter	E. coli	PhoQ-PhoP variant library, with: 10 µM Mg2+	relative to: high Mg2+ state, higher = stronger signaling	fold induction	2.09

Some of these lines once more (block 3):
Variant	normalised enrichment score
PPVKRRLDLTTDH [E10T]	5.96
PPVKRRLDLETDA [H13A]	6.57
PPVKRRLDLEEDH [T11E]	5.73
PPVKRRLLLETDH [D8L]	7.01
